Measurements from different studies.
Compare with care: the assays were run in different laboratories. ± gives the spread as reported.
UniProt P00519, sequence (whole entry, looked up): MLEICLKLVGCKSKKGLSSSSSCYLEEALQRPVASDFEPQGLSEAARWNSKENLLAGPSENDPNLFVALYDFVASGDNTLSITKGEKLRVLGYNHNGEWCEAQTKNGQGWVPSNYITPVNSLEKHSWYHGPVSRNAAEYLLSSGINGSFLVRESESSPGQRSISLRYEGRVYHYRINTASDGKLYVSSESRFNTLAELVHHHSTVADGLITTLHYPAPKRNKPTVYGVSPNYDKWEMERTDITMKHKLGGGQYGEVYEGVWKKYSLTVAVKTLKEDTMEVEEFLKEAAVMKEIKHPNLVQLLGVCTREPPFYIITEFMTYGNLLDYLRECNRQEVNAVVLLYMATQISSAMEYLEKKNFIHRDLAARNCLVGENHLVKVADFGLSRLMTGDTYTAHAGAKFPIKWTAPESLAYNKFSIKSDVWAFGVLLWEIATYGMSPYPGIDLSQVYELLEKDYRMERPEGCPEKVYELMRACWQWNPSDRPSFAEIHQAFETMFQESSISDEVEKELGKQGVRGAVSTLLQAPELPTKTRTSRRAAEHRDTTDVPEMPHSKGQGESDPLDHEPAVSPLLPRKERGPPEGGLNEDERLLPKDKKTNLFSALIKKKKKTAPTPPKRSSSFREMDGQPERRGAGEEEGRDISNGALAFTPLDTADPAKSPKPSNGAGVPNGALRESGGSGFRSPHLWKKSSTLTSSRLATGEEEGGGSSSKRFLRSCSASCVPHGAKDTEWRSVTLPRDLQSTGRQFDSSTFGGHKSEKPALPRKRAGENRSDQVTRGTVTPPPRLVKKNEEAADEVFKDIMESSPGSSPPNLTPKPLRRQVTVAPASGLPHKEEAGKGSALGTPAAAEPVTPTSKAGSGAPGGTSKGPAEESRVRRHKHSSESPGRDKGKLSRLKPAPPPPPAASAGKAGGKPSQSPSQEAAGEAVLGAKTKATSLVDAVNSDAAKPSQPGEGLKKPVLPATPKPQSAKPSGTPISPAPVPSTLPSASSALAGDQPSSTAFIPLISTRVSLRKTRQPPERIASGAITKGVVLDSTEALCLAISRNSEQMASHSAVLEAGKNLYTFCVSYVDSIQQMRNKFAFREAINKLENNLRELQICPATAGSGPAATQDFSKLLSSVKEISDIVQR
UniProt P02769, sequence (whole entry, looked up): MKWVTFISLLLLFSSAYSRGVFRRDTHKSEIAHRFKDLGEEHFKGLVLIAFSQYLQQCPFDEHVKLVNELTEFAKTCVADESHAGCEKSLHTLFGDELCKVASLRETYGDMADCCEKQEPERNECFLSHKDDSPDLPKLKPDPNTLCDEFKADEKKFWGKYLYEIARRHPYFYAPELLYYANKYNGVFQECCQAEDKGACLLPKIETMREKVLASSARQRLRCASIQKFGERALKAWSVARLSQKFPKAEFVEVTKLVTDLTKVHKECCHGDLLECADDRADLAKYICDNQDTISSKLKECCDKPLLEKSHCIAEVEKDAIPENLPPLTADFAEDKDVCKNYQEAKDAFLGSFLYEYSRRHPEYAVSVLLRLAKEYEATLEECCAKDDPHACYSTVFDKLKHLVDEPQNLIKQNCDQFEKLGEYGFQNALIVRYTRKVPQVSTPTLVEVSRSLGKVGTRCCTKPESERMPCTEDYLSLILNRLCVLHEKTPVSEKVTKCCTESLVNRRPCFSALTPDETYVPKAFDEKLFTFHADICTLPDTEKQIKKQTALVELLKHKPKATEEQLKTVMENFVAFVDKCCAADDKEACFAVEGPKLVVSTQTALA
UniProt P08173, sequence (whole entry, looked up): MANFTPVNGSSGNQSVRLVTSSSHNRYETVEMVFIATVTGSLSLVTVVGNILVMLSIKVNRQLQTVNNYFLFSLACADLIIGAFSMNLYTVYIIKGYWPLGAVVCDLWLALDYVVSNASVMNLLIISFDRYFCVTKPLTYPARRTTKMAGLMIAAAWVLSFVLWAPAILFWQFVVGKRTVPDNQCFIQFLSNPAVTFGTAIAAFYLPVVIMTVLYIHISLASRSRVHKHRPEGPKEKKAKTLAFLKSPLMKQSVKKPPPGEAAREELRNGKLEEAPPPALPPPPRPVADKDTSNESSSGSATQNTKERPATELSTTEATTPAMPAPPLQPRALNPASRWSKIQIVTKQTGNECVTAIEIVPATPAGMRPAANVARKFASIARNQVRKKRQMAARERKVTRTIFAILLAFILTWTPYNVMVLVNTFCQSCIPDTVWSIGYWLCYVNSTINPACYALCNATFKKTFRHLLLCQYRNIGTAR
UniProt Q96C86, sequence (whole entry, looked up): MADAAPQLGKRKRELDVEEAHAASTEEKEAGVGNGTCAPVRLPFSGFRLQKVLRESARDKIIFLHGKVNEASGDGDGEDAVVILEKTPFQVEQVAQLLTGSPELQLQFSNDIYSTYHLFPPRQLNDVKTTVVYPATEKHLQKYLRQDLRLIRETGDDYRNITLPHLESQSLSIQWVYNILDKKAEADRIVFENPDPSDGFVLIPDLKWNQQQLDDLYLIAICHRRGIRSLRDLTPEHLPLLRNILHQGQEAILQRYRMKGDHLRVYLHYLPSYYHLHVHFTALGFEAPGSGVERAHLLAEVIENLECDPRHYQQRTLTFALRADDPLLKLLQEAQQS
UniProt P78352, sequence (whole entry, looked up): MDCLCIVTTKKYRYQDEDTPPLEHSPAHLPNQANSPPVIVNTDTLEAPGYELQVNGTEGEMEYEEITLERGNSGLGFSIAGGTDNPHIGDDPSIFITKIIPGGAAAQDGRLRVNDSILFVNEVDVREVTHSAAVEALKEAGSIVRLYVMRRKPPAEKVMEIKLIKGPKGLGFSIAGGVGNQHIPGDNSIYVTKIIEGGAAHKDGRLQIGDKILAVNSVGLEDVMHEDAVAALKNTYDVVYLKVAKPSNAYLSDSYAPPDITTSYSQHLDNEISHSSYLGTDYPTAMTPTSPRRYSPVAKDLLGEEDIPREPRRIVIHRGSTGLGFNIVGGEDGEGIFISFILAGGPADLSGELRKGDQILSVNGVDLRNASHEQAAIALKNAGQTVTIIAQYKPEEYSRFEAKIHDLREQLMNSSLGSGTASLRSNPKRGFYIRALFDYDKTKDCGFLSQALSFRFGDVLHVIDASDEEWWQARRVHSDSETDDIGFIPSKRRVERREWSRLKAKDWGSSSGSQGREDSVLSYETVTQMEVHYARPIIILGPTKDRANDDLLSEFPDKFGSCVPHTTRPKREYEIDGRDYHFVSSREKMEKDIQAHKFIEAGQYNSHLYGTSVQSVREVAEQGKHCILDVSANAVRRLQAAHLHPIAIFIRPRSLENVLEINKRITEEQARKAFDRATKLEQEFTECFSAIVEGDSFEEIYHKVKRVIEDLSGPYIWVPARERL
UniProt P02919, sequence (whole entry, looked up): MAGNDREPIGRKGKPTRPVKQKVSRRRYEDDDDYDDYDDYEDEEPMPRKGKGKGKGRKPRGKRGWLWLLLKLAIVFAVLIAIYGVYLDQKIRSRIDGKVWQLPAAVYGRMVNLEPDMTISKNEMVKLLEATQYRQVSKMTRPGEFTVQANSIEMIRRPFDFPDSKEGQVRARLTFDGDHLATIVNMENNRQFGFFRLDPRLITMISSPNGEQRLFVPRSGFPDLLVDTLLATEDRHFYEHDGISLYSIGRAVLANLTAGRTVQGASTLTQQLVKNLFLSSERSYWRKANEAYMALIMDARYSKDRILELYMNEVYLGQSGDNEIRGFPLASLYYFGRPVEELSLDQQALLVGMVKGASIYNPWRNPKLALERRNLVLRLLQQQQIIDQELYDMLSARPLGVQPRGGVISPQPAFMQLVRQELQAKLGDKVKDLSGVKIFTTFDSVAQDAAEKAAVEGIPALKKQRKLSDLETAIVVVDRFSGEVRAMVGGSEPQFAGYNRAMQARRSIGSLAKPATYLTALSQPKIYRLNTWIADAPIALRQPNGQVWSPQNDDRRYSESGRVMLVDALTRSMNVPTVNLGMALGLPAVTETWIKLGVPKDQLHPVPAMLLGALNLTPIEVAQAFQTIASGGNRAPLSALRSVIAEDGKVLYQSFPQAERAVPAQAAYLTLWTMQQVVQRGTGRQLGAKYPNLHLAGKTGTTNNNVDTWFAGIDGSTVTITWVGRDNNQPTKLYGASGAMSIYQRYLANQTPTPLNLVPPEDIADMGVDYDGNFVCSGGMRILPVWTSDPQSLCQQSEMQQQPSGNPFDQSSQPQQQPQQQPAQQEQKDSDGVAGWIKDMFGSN
UniProt Q08881, sequence (whole entry, unmodified, looked up): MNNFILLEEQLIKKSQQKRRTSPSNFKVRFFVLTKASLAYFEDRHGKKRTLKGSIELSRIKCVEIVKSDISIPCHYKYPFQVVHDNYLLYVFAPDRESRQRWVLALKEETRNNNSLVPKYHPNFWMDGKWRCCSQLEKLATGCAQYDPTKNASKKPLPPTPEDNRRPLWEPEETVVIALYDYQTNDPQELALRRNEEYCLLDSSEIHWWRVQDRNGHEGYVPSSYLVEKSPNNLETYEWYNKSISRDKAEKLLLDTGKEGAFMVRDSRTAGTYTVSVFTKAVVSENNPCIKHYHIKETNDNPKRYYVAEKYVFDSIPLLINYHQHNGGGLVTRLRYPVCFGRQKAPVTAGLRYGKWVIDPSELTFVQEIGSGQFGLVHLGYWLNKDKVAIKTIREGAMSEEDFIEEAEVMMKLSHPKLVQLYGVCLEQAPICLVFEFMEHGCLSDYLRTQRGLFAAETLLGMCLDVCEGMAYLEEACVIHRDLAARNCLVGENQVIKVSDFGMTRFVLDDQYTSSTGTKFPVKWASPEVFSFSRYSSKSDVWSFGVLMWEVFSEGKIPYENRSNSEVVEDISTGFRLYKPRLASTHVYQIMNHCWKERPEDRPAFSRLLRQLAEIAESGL
UniProt Q96DE0, sequence (whole entry, looked up): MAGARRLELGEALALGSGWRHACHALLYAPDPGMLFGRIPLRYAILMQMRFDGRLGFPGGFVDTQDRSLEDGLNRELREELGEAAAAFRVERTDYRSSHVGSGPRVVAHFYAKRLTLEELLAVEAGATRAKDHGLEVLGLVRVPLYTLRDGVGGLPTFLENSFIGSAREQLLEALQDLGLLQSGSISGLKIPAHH

target	assay	system	setting	how to read	endpoint	result	SMILES
CHRM4 (Homo sapiens, UniProt P08173)	antagonist, refers to: inositol phosphates	CHO co-expressing G15	added: carbachol	–	cooperativity factor	0.0012 ± 0.0002	CCCCOc1ccc(C(=O)OCC[N+]2(C)CC=CCC2)cc1 (stereo not shown)
Albumin (ALB, Bos taurus, UniProt P02769)	fluorescence quenching	–	–	–	binding constant	3.08e+06 M⁻¹	COC(=O)c1cnc(-c2cnccn2)cc1C(=O)OC.COC(=O)c1cnc(-c2cnccn2)cc1C(=O)OC.F[P-](F)(F)(F)(F)F.[Ag+]
ALOX15 (Homo sapiens, UniProt P16050)	enzyme activity, activator	–	added: docosahexaenoic acid 10 µM	–	maximal activation	26%	CN1CCN(CC(=O)N2N=C3/C(=C/c4ccccc4)CCCC3C2c2ccccc2)CC1 (mixture of isomers)
ABL1 (Homo sapiens, UniProt P00519)	enzyme activity, inhibitor, radiometric	–	5 µM	–	remaining activity	18.4%	CC(=O)N[C@@H](Cc1c[nH]c2ccccc12)C(=O)N[C@@H](Cc1c[nH]c2ccccc12)C(=O)N[C@@H](Cc1c[nH]c2ccccc12)C(=O)N[C@@H](Cc1c[nH]c2ccccc12)C(=O)N[C@@H](Cc1c[nH]c2ccccc12)C(=O)N[C@@H](Cc1c[nH]c2ccccc12)C(=O)NCCCC[C@@H]1NC(=O)[C@H](CCCNC(=N)N)NC(=O)[C@H](CCCNC(=N)N)NC(=O)[C@H](CCCNC(=N)N)NC(=O)[C@H](CCCNC(=N)N)NC(=O)[C@H](CCCNC(=N)N)NC(=O)[C@H](CCCNC(=N)N)NC1=O
NUDT16 (Homo sapiens, UniProt Q96DE0)	decapping, substrate	capped RNA transcribed by SP6 polymerase	concentration not given, 30 min	–	cap hydrolysis	21.2%	Cc1csc(CCCNc2nc3c(c(=O)[nH]2)[n+](C)cn3C2OC(COP(=O)(O)OP(=O)([O-])OP(=O)(O)OCC3OC(n4cnc5c(=O)[nH]c(N)nc54)C(O)C3O)C(O)C2O)n1 (stereo not shown)
DCPS (Homo sapiens, UniProt Q96C86)	binding, fluorescence quenching titration	–	pH 7.6, 20.0 °C	–	association constant	67.1 ± 8.5 µM⁻¹	BP(=O)(OP(=O)([O-])OC[C@H]1O[C@@H](n2c[n+](C)c3c(=O)[nH]c(N)nc32)[C@H](O)[C@@H]1O)OP(=O)([O-])OC[C@H]1O[C@@H](n2c[n+](C)c3c(=O)[nH]c(N)nc32)[C@H](O)[C@@H]1O
Kinesin-like protein KIF11, motor domain (KIF11, Homo sapiens, UniProt P52732)	ITC	–	25 °C	–	-TΔS	4.2 kcal/mol	COc1ccc(C2(SCC(N)C(=O)O)c3ccccc3CCc3ccccc32)cc1 (stereo not shown)
Disks large homolog 4, PDZ3 domain (Homo sapiens, UniProt P78352)	PDZ domain binding, fluorescence emission intensity	PSD-95 PDZ3 domain	4-DMAP-Dab at position -5	baseline: probe without PDZ domain	relative fluorescence increase	4.6	CCCC[C@H](NC(=O)CNC(=O)[C@H](CO)NC(=O)[C@H](CCCNC(=N)N)NC(=O)[C@H](CCCNC(=N)N)NC(=O)[C@H](CC(N)=O)NC(C)=O)C(=O)N1CCC[C@H]1C(=O)N[C@@H](CCN1C(=O)c2ccc(N(C)C)cc2C1=O)C(=O)NCC(=O)N[C@@H](C)C(=O)N[C@H](C(=O)NCC(=O)N[C@H](C(=O)O)C(C)C)[C@@H](C)O
F10 (Homo sapiens, UniProt P00742)	enzyme activity, inhibitor, FXa chromogenic substrate hydrolysis	–	pH 7.4, 25–37 °C	–	Hill slope	1.9 ± 0.2	Cc1cc(-c2ccc(/N=N/c3ccc4c(S(=O)(=O)O)cc(S(=O)(=O)O)c(N)c4c3O)c(C)c2)ccc1/N=N/c1ccc2c(S(=O)(=O)O)cc(S(=O)(=O)O)c(N)c2c1O
Inositol 1,4,5-trisphosphate-gated calcium channel ITPR1, N-terminal region (Itpr1, Rattus norvegicus, UniProt P29994, del318-332/R504Q)	[3H]IP3 competition binding	N-terminal fragment	concentration not given, Tris-EDTA medium	baseline: R504Q over wild type	affinity reduction	44 fold	O=P(O)(O)O[C@@H]1[C@@H](O)[C@@H](O[C@@H]2COC[C@@H]2OP(=O)(O)O)O[C@H](CO)[C@H]1OP(=O)(O)O
mrcB (Escherichia coli K-12, UniProt P02919)	transglycosylation activity	–	50 µM, added: dansyl-lipid II	–	remaining activity	60%	CCCCCCCCCCN1C(=O)/C(=N\NC(N)=S)c2cc(C)ccc21
ITK (Homo sapiens, UniProt Q08881)	cell-free assay, TR-FRET	–	10 µM	–	inhibition	0.7%	COc1cc(C(=O)NC2CCC(N3CCN(CC4CCC5(CCCC5)C4)CC3)CC2)c(F)cc1Nc1ncc2c(n1)N(C1CCCC1(F)F)CC(F)(F)C(=O)N2C (stereo not shown)
ULK1 (Homo sapiens, UniProt O75385)	enzyme activity, inhibitor, ADP detection	–	0.1 µM	–	activity vs control	154%	CC(C)(C)OC(=O)N1CCN(CC(OCc2ccc3ccccc3c2)c2ccc(Cl)cc2Cl)CC1 (stereo not shown)

For quick reference, copied from above:
target	assay	system	setting	how to read	endpoint	result	SMILES
Inositol 1,4,5-trisphosphate-gated calcium channel ITPR1, N-terminal region (Itpr1, Rattus norvegicus, UniProt P29994, del318-332/R504Q)	[3H]IP3 competition binding	N-terminal fragment	concentration not given, Tris-EDTA medium	baseline: R504Q over wild type	affinity reduction	44 fold	O=P(O)(O)O[C@@H]1[C@@H](O)[C@@H](O[C@@H]2COC[C@@H]2OP(=O)(O)O)O[C@H](CO)[C@H]1OP(=O)(O)O
